Published values of several laboratories.
Each line is one published result; not all experiments were run side by side. Several values in a cell are separate wells, animals, samples, runs or records. ± marks the error that the study gave.
Fibroin-modulator-binding protein-1: Fibroin-modulator-binding protein-1 99-193 (Bombyx mori, UniProt Q5FBS0)

| Molecule | target or system | assay | test system | conditions | how to read | measurement | value |
| --- | --- | --- | --- | --- | --- | --- | --- |
| colistin | Klebsiella pneumoniae | – | clinical isolate RKI 93/10 | – | – | MIC | 1 µg/mL |
| adenosylhomocysteinase | – | co-immunoprecipitation | human RBC membrane | unit not given, together with: Band 3 peptide 1-56 bait | relative to: negative control | co-IP enrichment | 0 |
| GSGAGHETIV | human SCRIB PDZ3-4 tandem (MBP fusion) | automated holdup | peptide, purified PDZ protein | concentration not given, unit not given | relative to: biotin control resin, higher = stronger binding | binding intensity | 0.517 |
| GEMVGQARILAQATSDLVNAIKDA | vinculin head domain Vd1 | complex rupture, AFM single-molecule force spectroscopy | peptide | traces traces, C-terminal pulling, 800 nm/s | – | rupture force FWHM lower side | 38.6 pN |
| CLMTWLDVV | Jurkat T cells expressing 1G4 TCR | NFAT-eGFP reporter, fluorescence microscopy | peptide | concentration not given, HLA-A*02:01 NY-ESO system | – | reporter activation | 0.00399% |
| GSGAGSETSV | human MAGI1-3/6 PDZ construct (MBP fusion) | automated holdup | peptide, crude extract | concentration not given, uncorrected, unit not given | relative to: biotin control resin, higher = stronger binding | binding intensity | 0.129 |
| human serum albumin | – | co-immunoprecipitation | human plasma | unit not given, together with: Band 3 peptide 1-56 bait | relative to: negative control | co-IP enrichment | 33.3 |
| GLFQWLAGV | Jurkat T cells expressing 1G4 TCR | NFAT-eGFP reporter, fluorescence microscopy | peptide | concentration not given, HLA-A*02:01 NY-ESO system | – | reporter activation | 0.0113% |
| difelikefalin | – | – | Japanese haemodialysis patients with pruritus | intravenous, 0.5 µg/kg, 8 weeks | – | PGIC very much worse | 0% |
| triosephosphate isomerase | – | co-immunoprecipitation | human RBC cytosol | DSSO crosslinker, unit not given, together with: Band 3 peptide 1-56 bait | relative to: negative control | co-IP enrichment | 572 |
| TCAATCAATCAA (dsDNA) | Fibroin-modulator-binding protein-1 | ITC | double-stranded DNA, one strand shown | – | – | Kd | 1.42 ± 0.109 µM |
| AAASMWR | MsrA and MsrB | LC-MS/MS | peptide, actinonin-treated Escherichia coli proteome | 10 min, pH 7.5, 37 °C, together with: MsrA 0.54 µM, MsrB 2.02 µM | – | fractional oxidation | 0.667 |
| FGSLLDYV | HLA class I histocompatibility antigen, A alpha chain, allele A*01:01 (Homo sapiens, UniProt P04439) | conformational ELISA | peptide | concentration not given | relative to: positive control peptide, direction not given | binding score | 0.1% |
| GLGQWISRA | Jurkat T cells expressing 1G4 TCR | NFAT-eGFP reporter, flow cytometry | peptide | concentration not given, HLA-A*02:01 NY-ESO system | – | reporter activation | 0.13% |
| ACEQNPIYWARYADWLFTTPLLLLDLALLVDADEGT | – | ex vivo fluorescence imaging | peptide, BALB/c mice, 4T1 tumour-bearing | intravenous, 5 nmol, 2 h post-injection, background-corrected mean fluorescence | relative to: tumour over muscle | contrast index | 4.1 ± 0.9 |
| cotadutide | – | – | C57BL/6J mouse, AMLN diet NASH model | dose not given, terminal | – | plasma cholesterol | 174 ± 8 mg/dL |
| KPGKGSETVV | human MAGI1-3/6 PDZ construct (MBP fusion) | surface plasmon resonance | peptide | concentration not given | higher = stronger binding | normalised SPR binding response | 0 normalised RU |
| CCT6A | – | co-immunoprecipitation | human RBC cytosol | DSSO crosslinker, unit not given, together with: Band 3 peptide 1-56 bait | relative to: negative control | co-IP enrichment | 3670 |
| SEKHFRETEV | human SCRIB PDZ3-4 tandem (MBP fusion) | automated holdup | peptide, crude extract | concentration not given, corrected by standard peak, unit not given | relative to: biotin control resin, higher = stronger binding | binding intensity | 0.981 |
| Peginesatide | UT7/EPO | tyrosine phosphorylation, LC-MS/MS phosphoproteomics, trypsin, item: GAB1 tyrosine 627 | – | 10 nM, 15 min, together with: 10 U/mL EPO | relative to: vehicle | phosphorylation level | 10.6 fold |
| GLAQWISGA | Jurkat T cells expressing 1G4 TCR | NFAT-eGFP reporter, flow cytometry | peptide | concentration not given, HLA-A*02:01 NY-ESO system | – | reporter activation | 0.3% |
| PKRSFIESNV | human MAGI1-2/6 PDZ construct (MBP fusion) | automated holdup | peptide, crude extract | concentration not given, corrected by standard peak, unit not given | relative to: biotin control resin, higher = stronger binding | binding intensity | 0.41 |

| Molecule | target or system | assay | test system | conditions | how to read | measurement | value |
| --- | --- | --- | --- | --- | --- | --- | --- |
| CGGACGGACGGA (dsDNA) | Fibroin-modulator-binding protein-1 | ITC | double-stranded DNA, one strand shown | – | – | Kd | 5.95 ± 0.899 µM |
| Ubiquitin fragment (Homo sapiens) | – | NMR, item: Lys11 | – | – | – | pKa | 11.2 |
| ILEAAKSIAAATSALVKAASAAQRE | vinculin head domain Vd1 | complex rupture, AFM single-molecule force spectroscopy | peptide | single traces, N-terminal pulling, 800 nm/s | – | mean rupture force | 60.4 pN |
| maraviroc | HBMEC | gene expression, qPCR | – | concentration not given, 24 h, together with: HIV infection plus Aβ42 | relative to: HIV plus Aβ42-treated cells, decrease | mRNA level | 5.4 fold |
| GLAQWVPLV | Jurkat T cells expressing 1G4 TCR | NFAT-eGFP reporter, flow cytometry | peptide | concentration not given, HLA-A*02:01 NY-ESO system | – | reporter activation | 0.2% |
| CAGATACTCT | Salmonella enterica Typhimurium | RNA-seq, item: pipB2 mRNA | peptide, SL1344 | 5 µM, 15 min | relative to: water control | log2 fold change | 2.66 |
| milbemycin oxime | Saccharomyces cerevisiae | cell growth | Pdr5 deleted, Cdr1 overexpressed | 2^-8.966 µg/mL, together with: fluconazole 1 µg/mL | – | OD600 | 1.02 and 1.01 and 1.03 |
| ACEEQNPWARYLEWLFPTETLLLEL | – | ex vivo fluorescence imaging | peptide, BALB/c mice, 4T1 tumour-bearing | intravenous, 5 nmol, 4 h post-injection, background-corrected mean fluorescence | relative to: tumour over muscle | contrast index | 5.5 ± 0.8 |
| SLLDYVREH | HLA class I histocompatibility antigen, A alpha chain, allele A*02:01 (Homo sapiens, UniProt P04439) | conformational ELISA | peptide | concentration not given | relative to: positive control peptide, direction not given | binding score | 15.2% |
| TCP-1 alpha | – | co-immunoprecipitation | human RBC cytosol | unit not given, together with: Band 3 peptide 1-56 bait | relative to: negative control | co-IP enrichment | 0 |
| GSGAGIESNV | human MAGI1-2/6 PDZ construct (MBP fusion) | automated holdup | peptide, crude extract | concentration not given, corrected by standard peak, unit not given | relative to: biotin control resin, higher = stronger binding | binding intensity | -0.0908 |
| epoetin alfa | UT7/EPO | RT-qPCR, item: OSM | – | concentration not given, 90 min, normalized to HPRT1 | relative to: vehicle | mRNA level | 129 fold |
| human retinal dehydrogenase 1 | – | co-immunoprecipitation | human RBC cytosol | DMTMM crosslinker, unit not given, together with: Band 3 peptide 1-56 bait | relative to: negative control | co-IP enrichment | 18700 |
| RLAQWISQA | Jurkat T cells expressing 1G4 TCR | NFAT-eGFP reporter, fluorescence microscopy | peptide | concentration not given, HLA-A*02:01 NY-ESO system | – | reporter activation | 8.58% |
| GSGAGKETRV | human MAGI1-3/6 PDZ construct (MBP fusion) | automated holdup | peptide, crude extract | concentration not given, uncorrected, unit not given | relative to: biotin control resin, higher = stronger binding | binding intensity | 0.487 |
| GLFQWVAQA | Jurkat T cells expressing 1G4 TCR | NFAT-eGFP reporter, flow cytometry | peptide | concentration not given, HLA-A*02:01 NY-ESO system | – | reporter activation | 0.25% |
| human clusterin | – | co-immunoprecipitation | human RBC membrane | no crosslinker, unit not given, together with: Band 3 peptide 1-56 bait | relative to: negative control | co-IP enrichment | 0 |
| Polymyxin B | Staphylococcus aureus | – | CMCC 26003 | concentration not given | – | catalase activity | 0.226 U/mol and 0.21 U/mol and 0.245 U/mol |
| hemoglobin beta | – | co-immunoprecipitation | human plasma | unit not given, together with: Band 3 peptide 1-56 bait | relative to: negative control | co-IP enrichment | 1.75 |
| MTVCNASQRQAHAQATAVSL | MDA-MB-231 | phage binding | peptide | – | relative to: targeting over control phage | selectivity ratio | 0.94 ± 0.26 |
| QSARYRDTEL | human MAGI1-3/6 PDZ construct (MBP fusion) | automated holdup | peptide, purified PDZ protein | concentration not given, unit not given | relative to: biotin control resin, higher = stronger binding | binding intensity | 0.0266 |
| GLGQWISQA | Jurkat T cells expressing 1G4 TCR | NFAT-eGFP reporter, flow cytometry | peptide | concentration not given, HLA-A*02:01 NY-ESO system | – | reporter activation | 0.5% |

Repeated from above:
| Molecule | target or system | assay | test system | conditions | how to read | measurement | value |
| --- | --- | --- | --- | --- | --- | --- | --- |
| GSGAGKETRV | human MAGI1-3/6 PDZ construct (MBP fusion) | automated holdup | peptide, crude extract | concentration not given, uncorrected, unit not given | relative to: biotin control resin, higher = stronger binding | binding intensity | 0.487 |
| GLFQWVAQA | Jurkat T cells expressing 1G4 TCR | NFAT-eGFP reporter, flow cytometry | peptide | concentration not given, HLA-A*02:01 NY-ESO system | – | reporter activation | 0.25% |
| human clusterin | – | co-immunoprecipitation | human RBC membrane | no crosslinker, unit not given, together with: Band 3 peptide 1-56 bait | relative to: negative control | co-IP enrichment | 0 |
